Measurements from different studies.
Numbered parts are unrelated; each lists some results of a single study. Several values in a cell are separate wells, animals, samples, runs or records.
Sequence of UniProt Q8IVW4 (whole entry, looked up): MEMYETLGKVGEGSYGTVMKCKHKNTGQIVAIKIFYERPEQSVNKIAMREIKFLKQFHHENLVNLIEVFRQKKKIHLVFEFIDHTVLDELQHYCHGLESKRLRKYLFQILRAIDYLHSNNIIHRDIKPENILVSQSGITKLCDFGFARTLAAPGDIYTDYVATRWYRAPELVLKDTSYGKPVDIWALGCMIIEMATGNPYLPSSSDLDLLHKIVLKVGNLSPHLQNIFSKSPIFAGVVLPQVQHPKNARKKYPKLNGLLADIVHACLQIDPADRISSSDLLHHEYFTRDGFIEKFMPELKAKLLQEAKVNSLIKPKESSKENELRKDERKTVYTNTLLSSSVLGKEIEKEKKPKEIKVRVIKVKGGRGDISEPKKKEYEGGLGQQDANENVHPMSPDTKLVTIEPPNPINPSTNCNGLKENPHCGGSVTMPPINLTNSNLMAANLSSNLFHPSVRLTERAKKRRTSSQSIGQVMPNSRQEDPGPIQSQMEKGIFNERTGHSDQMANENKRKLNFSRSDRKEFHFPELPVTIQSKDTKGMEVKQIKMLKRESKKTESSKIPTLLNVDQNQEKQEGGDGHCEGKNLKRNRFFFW
Sequence of UniProt P42684 (whole entry, looked up): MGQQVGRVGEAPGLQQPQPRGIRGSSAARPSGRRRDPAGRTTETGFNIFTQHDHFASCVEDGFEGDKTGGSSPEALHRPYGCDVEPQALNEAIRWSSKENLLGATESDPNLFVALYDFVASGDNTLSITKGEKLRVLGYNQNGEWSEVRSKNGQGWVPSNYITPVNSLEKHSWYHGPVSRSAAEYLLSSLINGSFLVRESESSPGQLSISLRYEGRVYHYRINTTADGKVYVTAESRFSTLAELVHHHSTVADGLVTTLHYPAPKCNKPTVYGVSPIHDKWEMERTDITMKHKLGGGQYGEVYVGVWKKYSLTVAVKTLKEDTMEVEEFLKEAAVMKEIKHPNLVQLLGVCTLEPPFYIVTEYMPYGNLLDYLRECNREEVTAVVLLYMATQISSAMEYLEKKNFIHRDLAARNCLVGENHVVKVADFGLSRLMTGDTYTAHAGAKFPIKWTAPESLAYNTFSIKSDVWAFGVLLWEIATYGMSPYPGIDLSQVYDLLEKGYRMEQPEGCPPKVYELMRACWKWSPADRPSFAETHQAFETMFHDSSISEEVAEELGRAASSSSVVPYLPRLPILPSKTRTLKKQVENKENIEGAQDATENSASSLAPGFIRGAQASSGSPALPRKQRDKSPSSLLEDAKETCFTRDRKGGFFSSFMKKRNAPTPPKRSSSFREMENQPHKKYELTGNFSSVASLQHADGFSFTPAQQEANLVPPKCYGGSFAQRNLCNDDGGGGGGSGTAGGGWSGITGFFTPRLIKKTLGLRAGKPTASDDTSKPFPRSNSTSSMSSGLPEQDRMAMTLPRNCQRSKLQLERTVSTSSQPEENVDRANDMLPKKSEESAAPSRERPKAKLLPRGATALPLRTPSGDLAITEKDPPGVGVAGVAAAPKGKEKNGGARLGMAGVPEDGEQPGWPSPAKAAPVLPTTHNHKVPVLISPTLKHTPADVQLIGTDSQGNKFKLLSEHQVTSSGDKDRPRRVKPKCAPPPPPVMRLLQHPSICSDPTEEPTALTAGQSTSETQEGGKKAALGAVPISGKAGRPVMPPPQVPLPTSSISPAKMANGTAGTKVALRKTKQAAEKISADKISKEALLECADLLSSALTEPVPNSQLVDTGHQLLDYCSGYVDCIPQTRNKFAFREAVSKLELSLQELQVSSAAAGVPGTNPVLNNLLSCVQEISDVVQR
Sequence of UniProt Q9UIK4 (whole entry, looked up): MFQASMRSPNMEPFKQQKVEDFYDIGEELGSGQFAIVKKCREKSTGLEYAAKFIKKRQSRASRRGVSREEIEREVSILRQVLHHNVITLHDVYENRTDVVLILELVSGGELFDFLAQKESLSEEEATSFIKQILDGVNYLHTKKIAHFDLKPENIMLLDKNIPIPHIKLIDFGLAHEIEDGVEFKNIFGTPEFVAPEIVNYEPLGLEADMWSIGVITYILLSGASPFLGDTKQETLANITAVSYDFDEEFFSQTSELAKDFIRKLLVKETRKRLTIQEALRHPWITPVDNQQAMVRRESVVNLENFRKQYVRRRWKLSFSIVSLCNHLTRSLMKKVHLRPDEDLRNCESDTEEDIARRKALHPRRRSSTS
Sequence of UniProt Q15759 (whole entry, looked up): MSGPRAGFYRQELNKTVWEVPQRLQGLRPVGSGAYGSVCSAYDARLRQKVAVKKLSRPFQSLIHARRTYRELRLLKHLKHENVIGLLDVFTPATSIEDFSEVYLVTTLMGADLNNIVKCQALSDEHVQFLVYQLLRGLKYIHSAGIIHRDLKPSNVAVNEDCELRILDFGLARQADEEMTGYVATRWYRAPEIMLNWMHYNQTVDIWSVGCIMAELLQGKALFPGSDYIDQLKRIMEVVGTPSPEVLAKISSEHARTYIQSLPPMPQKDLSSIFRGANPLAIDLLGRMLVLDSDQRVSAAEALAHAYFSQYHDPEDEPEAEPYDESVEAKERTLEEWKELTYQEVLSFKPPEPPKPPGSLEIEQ
Sequence of UniProt Q9Y2U5 (whole entry, looked up): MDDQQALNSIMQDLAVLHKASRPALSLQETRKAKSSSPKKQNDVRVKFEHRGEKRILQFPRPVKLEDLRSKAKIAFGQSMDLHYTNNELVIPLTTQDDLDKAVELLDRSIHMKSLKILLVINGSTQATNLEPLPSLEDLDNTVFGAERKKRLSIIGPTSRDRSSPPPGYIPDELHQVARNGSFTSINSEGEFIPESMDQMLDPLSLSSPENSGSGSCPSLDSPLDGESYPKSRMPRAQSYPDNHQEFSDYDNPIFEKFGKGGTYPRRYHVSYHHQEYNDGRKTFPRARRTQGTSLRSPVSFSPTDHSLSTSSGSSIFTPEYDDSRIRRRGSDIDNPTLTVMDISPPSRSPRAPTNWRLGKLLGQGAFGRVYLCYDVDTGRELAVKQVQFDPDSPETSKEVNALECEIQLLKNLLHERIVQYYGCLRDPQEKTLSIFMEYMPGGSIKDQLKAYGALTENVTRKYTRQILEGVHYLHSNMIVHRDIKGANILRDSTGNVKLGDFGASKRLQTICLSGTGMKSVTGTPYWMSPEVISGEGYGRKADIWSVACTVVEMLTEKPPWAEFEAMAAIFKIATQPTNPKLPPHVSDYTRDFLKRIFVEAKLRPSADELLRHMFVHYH
Sequence of UniProt Q15831 (whole entry, looked up): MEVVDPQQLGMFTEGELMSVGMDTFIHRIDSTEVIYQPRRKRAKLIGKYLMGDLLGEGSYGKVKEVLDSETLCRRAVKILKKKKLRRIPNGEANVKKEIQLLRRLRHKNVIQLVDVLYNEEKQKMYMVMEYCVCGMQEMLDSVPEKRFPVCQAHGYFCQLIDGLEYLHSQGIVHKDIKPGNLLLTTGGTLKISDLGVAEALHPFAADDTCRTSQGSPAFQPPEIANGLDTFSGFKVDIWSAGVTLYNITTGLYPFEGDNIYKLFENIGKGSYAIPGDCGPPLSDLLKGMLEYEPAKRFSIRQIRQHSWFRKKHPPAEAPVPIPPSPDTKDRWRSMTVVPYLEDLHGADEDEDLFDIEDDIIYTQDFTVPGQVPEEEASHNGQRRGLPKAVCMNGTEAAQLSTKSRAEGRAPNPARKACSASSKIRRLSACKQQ
Sequence of UniProt Q14164 (whole entry, looked up): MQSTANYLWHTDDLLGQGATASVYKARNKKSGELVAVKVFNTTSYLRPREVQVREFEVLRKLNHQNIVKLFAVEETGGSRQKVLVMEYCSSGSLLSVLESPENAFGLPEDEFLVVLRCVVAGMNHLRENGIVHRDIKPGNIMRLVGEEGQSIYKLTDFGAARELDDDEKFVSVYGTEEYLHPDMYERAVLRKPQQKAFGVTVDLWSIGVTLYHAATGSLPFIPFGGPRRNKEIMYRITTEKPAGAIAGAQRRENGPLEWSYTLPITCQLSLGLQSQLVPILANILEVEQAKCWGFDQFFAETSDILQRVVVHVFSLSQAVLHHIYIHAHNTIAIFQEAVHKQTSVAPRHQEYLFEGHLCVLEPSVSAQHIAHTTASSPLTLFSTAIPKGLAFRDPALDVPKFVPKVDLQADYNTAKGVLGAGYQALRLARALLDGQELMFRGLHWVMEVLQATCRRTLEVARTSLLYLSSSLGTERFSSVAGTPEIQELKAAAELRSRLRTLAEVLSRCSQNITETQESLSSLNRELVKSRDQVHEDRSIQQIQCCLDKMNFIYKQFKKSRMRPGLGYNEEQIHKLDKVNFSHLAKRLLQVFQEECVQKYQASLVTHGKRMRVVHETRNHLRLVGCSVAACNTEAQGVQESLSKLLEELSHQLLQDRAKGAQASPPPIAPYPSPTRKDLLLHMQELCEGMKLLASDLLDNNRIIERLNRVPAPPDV

Set 1
Target: RAC-alpha serine/threonine-protein kinase (AKT1, Homo sapiens, UniProt P31749)
Sequence of UniProt P31749 (whole entry, looked up): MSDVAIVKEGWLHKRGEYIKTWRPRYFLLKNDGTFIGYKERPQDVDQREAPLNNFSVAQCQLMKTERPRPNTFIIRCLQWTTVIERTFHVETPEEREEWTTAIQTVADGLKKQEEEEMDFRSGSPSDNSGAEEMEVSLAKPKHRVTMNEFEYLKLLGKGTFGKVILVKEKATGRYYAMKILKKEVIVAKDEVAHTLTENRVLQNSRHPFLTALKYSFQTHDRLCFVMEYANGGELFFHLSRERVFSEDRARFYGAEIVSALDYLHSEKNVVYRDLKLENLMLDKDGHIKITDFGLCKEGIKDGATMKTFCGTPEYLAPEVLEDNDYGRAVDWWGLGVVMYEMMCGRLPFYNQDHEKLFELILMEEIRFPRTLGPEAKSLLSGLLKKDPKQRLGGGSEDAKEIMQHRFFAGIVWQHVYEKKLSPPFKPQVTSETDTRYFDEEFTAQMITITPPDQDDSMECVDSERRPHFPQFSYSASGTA
Effect on: enzyme activity
Mode: inhibitor
Tested at: 0.5 µM
Relative to: control
Measurement: remaining activity
Compound = O=C1C(Cl)=C(N2C(=O)CCC2=O)C(=O)c2ccccc21; result = 103%
Compound = Nc1cccc(-c2cc3c(Oc4cccc(O)c4)ncnc3[nH]2)c1; result = 92.5%
Compound = CCN(CC)C(=O)c1ccc(Nc2nc(OCC3CCCCC3)c3[nH]cnc3n2)cc1; result = 98.8%
Compound = c1ccc(-c2cnc(Nc3ccc(OCCN4CCCC4)cc3)s2)cc1; result = 101%
Compound = COc1cc2c(cc1OC)-c1[nH]nc(Nc3cccc(F)c3)c1C2; result = 93.3%
Compound = CCOc1nc(NC(=O)Cc2cc(OC)ccc2OC)cc(N)c1C#N; result = 102%
Compound = O=C(NC(NC(=S)Nc1ccc(F)c([N+](=O)[O-])c1)C(Cl)(Cl)Cl)C(c1ccccc1)c1ccccc1 (centres unmarked); result = 118%
Compound = CN([C@@H](Cc1ccc(OS(=O)(=O)c2cccc3cnccc23)cc1)C(=O)N1CCN(c2ccccc2)CC1)S(=O)(=O)c1cccc2cnccc12; result = 102%
Compound = O=C1c2ccccc2-c2n[nH]c3cccc1c23; result = 102%
Compound = N#Cc1c(NC(=O)c2cccc3ccccc23)sc2c1CCCC2; result = 101%
Compound = COc1cc2ncnc(Nc3cccc(Cl)c3)c2cc1OC; result = 89.9%
Compound = N#C/C(=C\c1ccc(O)c(O)c1)C(=O)NCc1ccccc1; result = 101%
Compound = O=c1cc(-c2cccc3c2Sc2ccccc2S3)oc(N2CCOCC2)c1; result = 113%
Compound = Cn1nc2c3c(cccc31)C(=O)c1ccccc1-2; result = 99.1%
Compound = c1ccc(-c2[nH]ncc2-c2ccnc3ccccc23)nc1; result = 100%
Compound = CCN(CC)CCNC(=O)c1c(C)[nH]c(/C=C2\C(=O)Nc3ccc(Cl)cc32)c1C; result = 102%
Compound = CN(C)C[C@H]1CCn2c(c(C3=C(c4cn(C)c5ccccc45)C(=O)NC3=O)c3ccccc32)C1; result = 98.7%
Compound = Cc1nc2cc3nc(-c4cccs4)cnc3cc2n1C; result = 114%
Compound = COc1cc2ncnc(Nc3ccc(O)c(Br)c3)c2cc1OC; result = 94%
Compound = Cc1cc2ncc(-c3ccccc3)nc2cc1C; result = 101%
Compound = Cc1cn(-c2cc(NC(=O)c3ccc(C)c(Nc4nccc(-c5cccnc5)n4)c3)cc(C(F)(F)F)c2)cn1; result = 99.7%
Compound = Ic1cccc(CSc2nnc(-c3ccncc3)o2)c1; result = 98.6%
Compound = O=C(Nc1cccc(Nc2nccc(Nc3cccc(C(F)(F)F)c3)n2)c1)C1CC1; result = 109%

Set 2
Cell line: HaCaT
Tested at: 100 µM
Time: 36 h
Measurement: viability
Structure (SMILES) = CN1CCC(=C2c3ccccc3CC(=O)c3sccc32)CC1; result = 63.4%
Structure (SMILES) = Cc1cn([C@H]2O[C@@H](CO)[C@H](O)[C@H]2F)c(=O)[nH]c1=O; result = 98.7%
Structure (SMILES) = C[C@@H]1C/C=C/C=C/C=C/C=C/[C@H](O[C@@H]2O[C@H](C)[C@@H](O)[C@H](N)[C@@H]2O)C[C@@H]2O[C@](O)(C[C@@H](O)C[C@H]3O[C@@H]3/C=C/C(=O)O1)C[C@H](O)[C@H]2C(=O)O; result = 50.3%
Structure (SMILES) = CC(C)NCC(O)COc1cccc2[nH]ccc12 (centres unmarked); result = 91.6%
Structure (SMILES) = CCCCN1CCCC[C@H]1C(=O)Nc1c(C)cccc1C; result = 71.2%
Structure (SMILES) = CC[C@H]1OC(=O)[C@H](C)[C@@H](O[C@H]2C[C@@](C)(OC)[C@@H](O)[C@H](C)O2)[C@H](C)[C@@H](O[C@@H]2O[C@H](C)C[C@H](N(C)C)[C@H]2O)[C@](C)(O)C[C@@H](C)C(=O)[C@H](C)[C@@H](O)[C@]1(C)O; result = 72.1%
Structure (SMILES) = O=C1CC[C@@H](C(=O)N2CSC[C@H]2C(=O)O)N1; result = 88.9%
Structure (SMILES) = C[C@H]1[C@H](OC(=O)CCC(=O)O)O[C@@H]2O[C@@]3(C)CC[C@H]4[C@H](C)CC[C@@H]1[C@@]24OO3; result = 61.4%
Structure (SMILES) = N[C@@H](Cc1ccc(O)c(O)c1)C(=O)O; result = 112%
Structure (SMILES) = CN(C)CCCN1c2ccccc2Sc2ccc(Cl)cc21; result = 5.42%

Set 3
SMILES: CCOC(=O)c1cc2cc(-c3cc(C(=O)NCc4ccc(C(=O)O)cc4)nn3C)ccc2[nH]1
Effect on: cell-free assay
Technique: competition with immobilised ligand
Tested at: 0.1 µM
Measurement: remaining binding
target = EGFR (Homo sapiens, UniProt P00533, G719S); result = 100%
target = MAPK11 (Homo sapiens, UniProt Q15759); result = 98%
target = DAPK2 (Homo sapiens, UniProt Q9UIK4); result = 92%
target = STK11 (Homo sapiens, UniProt Q15831); result = 100%
target = PIK3CA (Homo sapiens, UniProt P42336, C420R); result = 83%
target = PDGFRA (Homo sapiens, UniProt P16234); result = 86%
target = MAP3K12 (Homo sapiens, UniProt Q12852); result = 79%
target = RPS6KB1 (Homo sapiens, UniProt P23443); result = 88%
target = EGFR (Homo sapiens, UniProt P00533, L861Q); result = 100%
target = CDKL3 (Homo sapiens, UniProt Q8IVW4); result = 0%
target = FLT3 (Homo sapiens, UniProt P36888, D835V/ITD); result = 87%
target = IKBKE (Homo sapiens, UniProt Q14164); result = 66%
target = ABL2 (Homo sapiens, UniProt P42684); result = 100%
target = CSNK1A1L (Homo sapiens, UniProt Q8N752); result = 100%
target = STK39 (Homo sapiens, UniProt Q9UEW8); result = 85%
target = MAP3K2 (Homo sapiens, UniProt Q9Y2U5); result = 100%

Single results of other studies
Compound = CC(=O)N[C@@H](Cc1c[nH]c2ccccc12)C(=O)N[C@@H](CCC(=O)C=[N+]=[N-])C(=O)OC(C)C; system = C57BL/6 CES1-/- mice, MC-38 tumour; setting = dose not given, day 49 after inoculation, added: anti-PD-1; scale = relative to: initial; measurement = body weight; result = 96.3% and 100% and 96.2% and 102% and 108% and 99.7%

Repeated from above (set 3):
target = ABL2 (Homo sapiens, UniProt P42684); result = 100%
target = CSNK1A1L (Homo sapiens, UniProt Q8N752); result = 100%
target = STK39 (Homo sapiens, UniProt Q9UEW8); result = 85%
target = MAP3K2 (Homo sapiens, UniProt Q9Y2U5); result = 100%
